Assay results pooled from the literature.
A part holds a random share of what one study measured.

Sample 1 — technique: RNA Bind-n-Seq; form: RNA; matrix: in vitro; concentration: not given; reference: input RNA pool; reading: higher = stronger binding
Target: RING finger protein unkempt homolog, zinc fingers 1-6, GST-SBP tag (UNK, Homo sapiens, UniProt Q9C0B0, residues 30-357)
Setting: RNA with constant flanks, human-mouse chimeric sites, ends assumed
All sequences stand within: GGGAGUUCUACAGUCCGACGAUC … CAACAGAGGAUUGAGCAUCA
Residues (chain): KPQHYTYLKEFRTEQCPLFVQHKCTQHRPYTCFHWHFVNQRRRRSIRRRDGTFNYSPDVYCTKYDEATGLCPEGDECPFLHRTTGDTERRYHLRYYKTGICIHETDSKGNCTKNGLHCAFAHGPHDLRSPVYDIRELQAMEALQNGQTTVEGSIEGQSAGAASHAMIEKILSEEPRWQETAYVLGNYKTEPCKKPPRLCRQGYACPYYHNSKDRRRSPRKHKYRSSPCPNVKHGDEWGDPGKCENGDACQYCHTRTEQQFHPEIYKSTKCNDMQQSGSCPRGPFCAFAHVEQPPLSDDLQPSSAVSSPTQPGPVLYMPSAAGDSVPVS
| Sequence | bound/input enrichment |
| --- | --- |
| GUGCCCUUCUCGCUGCUGCGGAGCCCGAGCUGGGAACACCCCUUCCGCUGGUACCCUGCACACAGCCGCCUCUUCGACCAGGCCUUCGGGGUGCCCCGGUUGCCCGAUGAGUGGUCGCAG | 0.0728 ratio |
| AAAGAGUGGAUAGAGUGUGCACACGGGAUCGGUGGGACCCGGGCGAAAAAGGAGUGCAAGAUAGAGUUCGAUGACUUCGAAGAGUGCUUGCUUCGGUAGAAAACGAUGAGGCGAAUGCAU | 0.504 ratio |
| AAAUCGUGUGUGUCCAAUAUUGAAAGUGCUUUAUCUACACUCCAGUAUGUAAGCAGUAUAGUAGUUUCUUUAGAGAAUAGGUCUGCCAUUGUGAAGUACAAUGCAAGCUUAGUCACUCCA | 1.73 ratio |
| CAGCGCCGAGGCCGCGGUUUCCCCCUGGGUGUGCUGAGCAGCAGCCAUGGGCAUCAAAUUUUUAGAAGUUAUUAAACCAUUCUGUGCAGUUCUACCAGAAAUUCAGAAACCGGAAAGGAA | 5.73 ratio |
| UGUGAACUGAAAGGUGUGAUCUAAAAAAAACAUGAUUUUUCCUGGCACAUAUUCCAAAGCAAAGACUUUGUUGCCUGCUGCUUAUUGUCUAAUUUACAGGGAUAUUUAAUUUUGUCAGGU | 0.191 ratio |
| GUUGCCAGGUUCCGGUGCCGUUGGGCUCGGUUCUCUCCUGAGCUACGUGUCUCUACGCUCUCAAUCCGCCAUCCAACAAACAUGGAUGAUCAGGUAAAGUUUGUGGAGCCCAGCCGGCAG | 0.0836 ratio |
| CAGCCUCAGAGCCCAGACUUCCUGGAUAUUACCAACCCUAAAGCGGUAUUAGAAAAUGCAUUGAGAAACUUCGCCUGUCUGACCACCGGGGAUGUGAUUGCUAUCAACUACAAUGAGAAG | 0.45 ratio |
| GAAUCCUACUCAGGCGGAUUUUGCAACACCAAGCUCACAGCAGCAGCAUCUUAGUCACAGUAGGGUAGUUUUGGGGCUCUGUGGCCAGGGUUUUAUUCAUGUGCAGGUUUUGAAAAUGUA | 1.25 ratio |
| UUGUGCAAUGAUGCUUGGAGAUGGUUUUGCAAAAGCAGAAAUCGCUGCAAGGUAAUCACAAUAGAUAAAAGUGGUAUUUUAAACCUUUGAAAUAAAUGGAUGUAACUGUACCUUGGUACA | 0.873 ratio |
| ACUCUUGACUCUUUCCAUCCUCUUCCUUUUCCUCUUGAUAUUCAAGGCCAUGAAUCCCAAAAUAACAGUCUUAGUGGCUAGCACCCAAACAGAGGUGGAAUAAAUCCACCCCAGUGUCUC | 0.56 ratio |
| AUAGAUGAAAUUGAUGUGGACCAGGAAGGAAUUGCAGAAAUGAUCCUGGAUGAAAAUGCUAUUGCUCAGGUCCCACGCCCUGGCACAUCUUUGAAGCUCCCUGGCACUAACCAAACAGGA | 0.314 ratio |

Sample 2 — technique: universal PBM; form: double-stranded DNA, one strand shown; matrix: in vitro; concentration: not given; reading: higher = stronger binding
Target: Sal-like protein 4, full length isoform B (SALL4, Homo sapiens, UniProt Q9UJQ4-2, residues 1-616)
Setting: 8-mer, flanks averaged, mean of replicates
| Sequence | E-score |
| --- | --- |
| AGGTTCGA | 0.0047 |
| ATTGCATA | 0.236 |
| GAGGATCA | -0.0814 |
| TGGATCAA | 0.118 |
| GTTCACAA | 0.165 |
| AATCGTAA | 0.255 |
| AATTGGAC | 0.117 |
| ACATCTTC | 0.00112 |
| GTTAATTA | 0.349 |
| ACTTTCCT | -0.0795 |
| CCGTCAGC | -0.219 |
| ACTTTGGC | -0.181 |
| AGCATGCA | 0.0447 |
| GCACCGCA | -0.299 |
| CCGGTAAG | -0.228 |
| AAACTTCG | -0.112 |
| CCTGGGCC | -0.319 |
| AGTAGTGC | -0.154 |
| AAGGGCGT | -0.0874 |
| AGCTGTGG | -0.193 |
| CATGACCA | 0.018 |
| AACCGTTG | 0.103 |
| GCCCGGAC | -0.327 |
| CGTGGTAC | -0.036 |
| AGGCGGCC | -0.301 |

Sample 3 — technique: competition protein-binding microarray; form: double-stranded DNA, one strand shown; matrix: in vitro; concentration: 2 µM; added: Cbf1 competitor, 0.05 µM; reading: higher = stronger binding; all sequences stand within: … GTCTTGATTCGCTTGACGCTGCTG
Target: Phosphate system positive regulatory protein PHO4, full length, GST-tagged (PHO4, Saccharomyces cerevisiae, UniProt P07270, residues 1-312)
Setting: whole 60-bp probe, lowest competitor level
Construct (chain): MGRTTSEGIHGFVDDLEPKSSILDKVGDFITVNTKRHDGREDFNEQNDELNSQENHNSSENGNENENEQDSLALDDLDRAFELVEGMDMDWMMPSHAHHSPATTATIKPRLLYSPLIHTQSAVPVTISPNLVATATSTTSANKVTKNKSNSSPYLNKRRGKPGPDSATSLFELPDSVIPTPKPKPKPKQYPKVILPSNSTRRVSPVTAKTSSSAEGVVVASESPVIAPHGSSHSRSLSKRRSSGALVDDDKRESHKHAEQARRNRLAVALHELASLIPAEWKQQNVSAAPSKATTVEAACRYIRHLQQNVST
| Sequence | fluorescence intensity |
| --- | --- |
| CATACCCAACCTTGTCACACCACTTAAGATATTTGT | 5070 a.u. |
| TTTGTTTACTAAAAACACATGTGTGTATCTTGACTG | 11600 a.u. |
| TGTTAAAGTTGTATCCATGTGTGCCCATAATGCCGA | 8560 a.u. |
| CGTCCTAGTGATTGTGATGTGGGTGCCATGAGGAAG | 7190 a.u. |
| CGTCCTAGTGATTGTAATGTGGGTGCCATGAGGAAG | 7070 a.u. |
| GAAAGATGTAGAAAACTCGTGGAGGTAGGATTATAC | 9500 a.u. |
| AAAGCGGTAATTTGAATAGTGGGTGCAGATATCTAT | 4300 a.u. |
| AAAGCGGTAATTTGACACGTGGGTGCAGATATCTAT | 18200 a.u. |
| CGCCTTGTGCTACTGGACGTGTGTTTGGTTTTATGT | 8770 a.u. |
| TTTTTAATGATTTCGCATGTGGATGTGTTCAGTATC | 8890 a.u. |
| CTTCTGTAAATTTGATGGGTGGGTGGACGCGCCCCG | 4150 a.u. |
| CCCACAAAGGGGCGCCGCGTGGTGATACGTACTGGA | 10500 a.u. |
| CGTCCTAGCGATTCGCACGTGTTTTCCATGAGGAAG | 17100 a.u. |
| AATTTCAACGACAGGTTCGTGCTTTTCACCTTCACC | 6100 a.u. |
| CATACCCAACCTTGATAAGTGGGTGAAGATATTTGT | 3840 a.u. |
| CGTTCCACGGAAAAACACGTGCTTTGCGGGTATCCG | 19300 a.u. |
| GTACTTTTATAAACACACGTGGAGGAACTTTGGTAT | 18000 a.u. |
| GATTCTCTCCTCGACCACGGGGGGCAACTCTGCCTG | 8400 a.u. |
| GATGGCCATTGATAACGCGTGAAATTTTCCAGGGTG | 4770 a.u. |
| TCTTGGAATTGCGACCACGTGCAAACCTACGTCTGC | 15000 a.u. |
| AAAGCGGTAATTTGCTTGGTGGGTGCAGATATCTAT | 3550 a.u. |
| CGTCCTAGTGATTGTTGCGTGGGTGCCATGAGGAAG | 8340 a.u. |
| TTAATACTGCCTGACGGCGTGCCAGAACAAGGAGCA | 7340 a.u. |
| GAAAATCATCCATTACACGTGTTTTCCTCTTTGATT | 18400 a.u. |
| CTTTCCCGATCTTGACCGGTGGGTGTAGCACATTTG | 4190 a.u. |

Sample 4 — technique: protein binding microarray; form: double-stranded DNA, one strand shown; matrix: in vitro; concentration: not given; reference: not given; reading: higher = stronger binding
Target: Histone acetyltransferase KAT6A, winged helix 1, GST fusion (KAT6A, Homo sapiens, UniProt Q92794, residues 1-85)
Setting: 8-mer, flanks averaged, mean of 2 arrays, mostly near background
Residues (chain): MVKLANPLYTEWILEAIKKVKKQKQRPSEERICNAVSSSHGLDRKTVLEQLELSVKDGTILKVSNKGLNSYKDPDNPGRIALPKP
| Sequence | E-score |
| --- | --- |
| CCCTAGGG | -0.217 |
| GGTAGGTA | -0.0754 |
| GCATTACC | 0.0172 |
| ACGGACCG | 0.295 |
| AGTGCCGA | 0.132 |
| AACTGCCC | -0.0283 |
| AAATATAC | -0.141 |
| TCGGTCCA | -0.168 |
| CATAACGA | -0.149 |
| CTACCATA | -0.125 |
| CACTTGGG | -0.218 |
| CGTTGGAC | -0.0747 |
| GAACTCCC | 0.0506 |
| ATTGAGGG | -0.0504 |
| AACTTTGT | -0.0444 |
| GGTGTGGA | -0.213 |
| ACAAGACC | -0.0399 |
| ACTGCACC | -0.0548 |
| AAAGTCGG | 0.0191 |
| AGGTTACG | 0.115 |
| GGGCACCC | 0.2 |
| GGTACCAC | -0.179 |
| CGAGCCAA | -0.21 |
| AAGACTCT | -0.222 |

Sample 5 — technique: RNA Bind-n-Seq; form: RNA; matrix: in vitro; concentration: 200 nM; setting: whole 134-nt RNA, ends assumed; added: 150 mM LiCl; reference: input library; reading: higher = stronger binding; all molecules: 7-deaza-guanosine replaces G
Target: Ras GTPase-activating protein-binding protein 1, full length (G3BP1, Homo sapiens, UniProt Q13283)
Sequence of UniProt Q13283 (whole entry, looked up): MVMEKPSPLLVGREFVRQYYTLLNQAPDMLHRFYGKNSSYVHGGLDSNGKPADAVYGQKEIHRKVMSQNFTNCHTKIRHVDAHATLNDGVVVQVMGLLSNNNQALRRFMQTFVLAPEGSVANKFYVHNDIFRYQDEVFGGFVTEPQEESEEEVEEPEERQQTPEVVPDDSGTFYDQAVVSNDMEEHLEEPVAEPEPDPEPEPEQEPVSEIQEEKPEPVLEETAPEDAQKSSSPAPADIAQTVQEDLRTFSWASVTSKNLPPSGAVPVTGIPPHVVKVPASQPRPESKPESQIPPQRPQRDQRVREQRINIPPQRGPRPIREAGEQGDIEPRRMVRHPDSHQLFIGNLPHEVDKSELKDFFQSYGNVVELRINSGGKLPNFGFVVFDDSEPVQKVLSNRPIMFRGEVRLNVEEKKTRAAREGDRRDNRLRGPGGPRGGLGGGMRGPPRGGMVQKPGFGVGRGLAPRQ
All sequences stand within: GGGAGUUCUACAGUCCGACGAUC … UGGAAUUCUCGGGUGUCAAGG
| Sequence | log2 enrichment |
| --- | --- |
| UCCUGUGCUACACAUCGUAUGUACCGAAUCGGGGCCCCCGGGGCCCCCGGGGCCCCCGGAAAGUAUUAUGUUACGCCGUUCGGAUCUGCA | 0.432 |
| GCAGGAAGUAAAAACAAAUGGAAAUGCUUCGGAUAGUGGCAGGGGUGGGGGUUGCUAUGGAAAGGGUGGGAUGGGAGUGGGUAAAGAGUU | -0.171 |
| UCAAGUCCUGUGCUACACAUCGUAUGUACCGAAUCGGUUUGGUUUGGAAAAAGGAAAGUAUUAUGUUACGCCGUUCGGAUCUGCACUUCC | -0.51 |
| ACCAUGCAGGUGGGCAUCUUUGGGAAGUGGGGCAAGGGGGGGAUAGGGAGGGGGGUAACACUUUGGGAACAGGUGGUCCCAGGUCGUAAA | 0.136 |
| CCUGUGCUACACAUCGUAUGUACCGAAUCGGGGCCCCCCGGGCCCCCCGGCCCCCCGGGGAAAGUAUUAUGUUACGCCGUUCGGAUCUGC | -0.000315 |
| UCAAGUCCUGUGCUACACAUCGUAUGUACCGAAUCGGGGUUGGUUGGGGUUGGGGAAAGUAUUAUGUUACGCCGUUCGGAUCUGCACUUC | -0.418 |
| CAAGUCCUGUGCUACACAUCGUAUGUACCGAAUCGGGUUUGGGUUUUUGGGAGGGAAAGUAUUAUGUUACGCCGUUCGGAUCUGCACUUC | 0.229 |
| CCUCAAGUCCUGUGCUACACAUCGUAUGUACCGAAUCGGGGUGGGUGGGUGGAAAGUAUUAUGUUACGCCGUUCGGAUCUGCACUUCCAG | -0.325 |
| AGUCCUGUGCUACACAUCGUAUGUACCGAAUCGGGAAAAGGGGAAAAGGGAAAAGGGGAAAGUAUUAUGUUACGCCGUUCGGAUCUGCAC | 0.282 |
| CAAGUCCUGUGCUACACAUCGUAUGUACCGAAUCGGUUUUGGUUUUGGGUUUUGGAAAGUAUUAUGUUACGCCGUUCGGAUCUGCACUUC | -1.02 |
| UGCCAGGCCCACCCCCAGGUGUUCCCGCGCCUGGGGGCCCACCCCUGUCCACCGGACCUAUAGUGGACCUGCUCCAGUACAGCCAGAAGG | 0.165 |
